Assay results gathered from unrelated publications.
Protocols differ between the studies behind these lines. “And” joins repeats or separate records; there may be more than shown. Numbers after ± are the reported error.
Cell line: MCF7

| Structure (SMILES) | test | setting | how to read | endpoint | result |
| --- | --- | --- | --- | --- | --- |
| CC(=O)[O][Pd][c]1ccccc1N1N=C(C)C(C)(C)C1=O.CC(=O)[O][Pd][c]1ccccc1N1N=C(C)C(C)(C)C1=O | FLICA flow cytometry | 25 µM, 24 h | – | caspase-3/7 active cells | 44.2 ± 3.35% |
| CSC(=S)N/N=C(\C)c1ccc(S(=O)(=O)N2CCC(C)CC2)cc1 | annexin V/PI | concentration not given, 72 h, at IC50 | – | late apoptotic cells | 8.88% |
| COC(=O)c1cc(NC2=NC(=O)C(=Cc3ccc(C)cc3)S2)ccc1OC(C)=O | GC-MS, item: Pyroglutamic acid | 1 µM | reference: DMSO | metabolite level | -0.14 fold change |
| CC(C)C[C@@H](NC(=O)[C@H](C)NC(=O)CNC(=O)[C@@H](NC=O)C(C)C)C(=O)N[C@@H](C)C(=O)N[C@@H](C(=O)N[C@H](C(=O)N[C@@H](C(=O)N[C@@H](Cc1c[nH]c2ccccc12)C(=O)N[C@H](CC(C)C)C(=O)N[C@@H](Cc1c[nH]c2ccccc12)C(=O)N[C@H](CC(C)C)C(=O)N[C@@H](Cc1c[nH]c2ccccc12)C(=O)N[C@H](CC(C)C)C(=O)N[C@@H](Cc1c[nH]c2ccccc12)C(=O)NCCO)C(C)C)C(C)C)C(C)C | flow cytometry | 100 nM, 48 h | – | cells in G1 phase | 56.8 ± 2.32% |
| COCCCCCNc1nc(NCCCCCCN(C)C)c2cc(NC(=O)/C=C/CN(C)C)ccc2n1 | CellTiter-Glo | 0.3906 µM, 24 h, unit not given | reference: DMSO-treated cells | viability | 0.9 and 1.03 and 0.997 |
| COC(=O)c1cc(NC2=NC(=O)C(=Cc3ccc(N(C)C)cc3)S2)ccc1OC(C)=O | GC-MS, item: Scyllo-Inositol | 1 µM | reference: DMSO | metabolite level | -0.13 fold change |
| CN(C)CCN1CCN(c2ccc3nc(-c4ccc5nc(-c6ccc(C(F)(F)F)cc6)[nH]c5c4)[nH]c3c2)CC1 | SRB | 10 µM, 48 h | – | growth percent | 9.58% |
| COc1ccc(CNC[C@@](O)(COCc2ccc(F)cc2)[C@@H]2CC[C@@H](C)C[C@H]2OCc2ccc(F)cc2)cc1 | cell growth or viability, MTT | 10 µM, 72 h | – | inhibition | 98.3% |
| COc1cc(/C=C/C(=O)/C=C(O)/C=C/c2ccc(OCC(=O)N3CCOCCOCCOCCOCC3)c(OC)c2)ccc1OCC(=O)N1CCOCCOCCOCCOCC1 | cell growth or viability, SRB | 25 µM | – | inhibition | 89.6% |
| CCCCCCCCCCCCCC(=S)NCCCC[C@H](NS(C)(=O)=O)C(=O)N[C@@H](C)C(=O)N[C@@H](CCCNC(=N)N)C(N)=O | cell growth or viability, MTT | 72 h | – | EC50 | 28.4 to 34.3 µM |
| C[C@@H]1CC[C@@H]([C@@](O)(CNCc2ccc(F)cc2)COCc2ccccc2)[C@H](OCc2ccccc2)C1 | cell growth or viability, MTT | 10 µM, 72 h | – | inhibition | 82.9% |
| C=CCc1c(O)cc2c(c1O)C(=O)CC(c1ccc(O)cc1)O2 (centres unmarked) | cytotoxicity, MTT | 3.202 µM, 48 h | – | growth inhibition | -5.94% |
| CC[C@H]([C@H](C)c1ccc(O)cc1)[C@@H](CC)c1ccc(O)cc1 | cell growth or viability, ATP luminescence | 5 days | – | EC50 | 0.0099 µM |
| CC(=S)NCCCC[C@H](NC(=O)OCc1ccccc1)C(=O)N[C@@H](Cc1c[nH]c2ccccc12)C(=O)NC(C)C | cell growth or viability, MTT | 72 h | – | EC50 | 62.8 to 69 µM |
| FC(F)(F)C1(c2ccc(CN3CCN(C(c4ccccc4)c4ccc(Cl)cc4)CC3)cc2)CCC1 (centres unmarked) | – | 72 h | – | EC50 | 14.7 ± 0.39 µM |
| CC(=NN=c1sc(C(=O)c2ccccc2)nn1-c1ccccc1)c1ccc(S(=O)(=O)N2CCC(C)CC2)cc1 | annexin V/PI | concentration not given, 72 h, at IC50 | – | late apoptotic cells | 6.77% |
| COc1ccccc1CNC[C@@](O)(COCc1ccccc1)[C@@H]1CC[C@@H](C)C[C@H]1OCc1ccccc1 | cell growth or viability, MTT | 30 µM, 72 h | – | inhibition | 94.8% |
| CC(C)(C)C12CC(CN3CCN(C(c4ccccc4)c4ccc(Cl)cc4)CC3)(C1)C2 (centres unmarked) | lipid droplet formation, Nile Red staining | 72 h | – | EC50 | 16.5 ± 0.56 µM |
| CCC(=CCc1c(O)cc2c(c1O)C(=O)CC(c1ccc(O)cc1)O2)CC (centres unmarked) | cytotoxicity, MTT | 54.29 µM, 48 h | – | growth inhibition | 72.8% |

| Structure (SMILES) | test | setting | how to read | endpoint | result |
| --- | --- | --- | --- | --- | --- |
| CC(=O)[O][Pd][c]1ccccc1-n1nc(C)cc1C.CC(=O)[O][Pd][c]1ccccc1-n1nc(C)cc1C | annexin V/PI flow cytometry | 25 µM, 24 h | – | late apoptotic cells | 86.3 ± 2.14% |
| Cc1c(COc2cc(OCc3cccc(C#N)c3)c(CNC(CO)(CO)CO)cc2Cl)cccc1-c1cccc(OCCCCCC(=O)NO)c1 | flow cytometry, PI staining | 5 µM, 48 h | – | G1 phase cells | 45.2% |
| NC(=O)c1ccc(-c2ccccc2Cl)c2c3c([nH]c12)CCC(N)C3 (centres unmarked) | cell growth or viability | – | – | IC50 | 0.026 µM |
| COc1ccc(C2CC(=O)c3c(cc(O)c(CC=C(C)C)c3O)O2)cc1 (centres unmarked) | cytotoxicity, MTT | 112.9 µM, 48 h | – | growth inhibition | 53.4% |
| C[C@@H]1CC[C@@H]([C@](O)(CNCc2cccc(F)c2)COCc2ccccc2)[C@H](OCc2ccccc2)C1 | cell growth or viability, MTT | 30 µM, 72 h | – | inhibition | 96.2% |
| C1=[N+]2CCCC[N+]3=Cc4ccc5[n]4[Au-]23[n]2c1ccc2-c1nc2ccccc2nc1-5.F[P-](F)(F)(F)(F)F | NCI60 five-dose screen | – | – | TGI | 4.6 -log M |
| C[C@@H]1CC[C@@H]([C@@](O)(CNCc2ccccc2F)COCc2ccccc2)[C@H](OCc2ccccc2)C1 | cell growth or viability, MTT | 30 µM, 72 h | – | inhibition | 91.9% |
| CCC(=CCc1c(O)cc2c(c1O)C(=O)CC(c1ccccc1O)O2)CC (centres unmarked) | cytotoxicity, MTT | 6.786 µM, 48 h | – | growth inhibition | -6.25% |
| COc1cccc(CNC[C@](O)(COCc2ccccc2)[C@@H]2CC[C@@H](C)C[C@H]2OCc2ccccc2)c1 | cell growth or viability, MTT | 30 µM, 72 h | – | inhibition | 95.1% |
| CCNC(=S)N/N=C(\C)c1c(O)c2ccccc2oc1=O | cell growth, MTT | – | reference: IC50 BJ-1 over MCF7 | selectivity index | > 4.41 |
| COc1ccc(COC[C@](O)(CNCc2ccccc2)[C@@H]2CC[C@@H](C)C[C@H]2OCc2ccc(OC)cc2)cc1 | cell growth or viability, MTT | 10 µM, 72 h | – | inhibition | 97.5% |
| CCC(=CCc1c(O)cc2c(c1O)C(=O)CC(c1cccc(O)c1)O2)CC (centres unmarked) | cytotoxicity, MTT | 3.393 µM, 48 h | – | growth inhibition | 14.9% |
| CSC(=NN=C(C)c1ccc(S(=O)(=O)N2CCC(C)CC2)cc1)N(C)C | flow cytometry | 4.29 µM (IC50), 72 h | – | cells in G0/G1 phase | 41.5% |
| Nc1ncc2c(n1)-c1c([nH]c3ccc(C4=CCOCC4)cc13)CCC2 | Western blot, item: phospho-p70-S6K Thr389 | 5 µM, 48 h | reference: total p70-S6K | phospho-p70-S6K level | 60% |
| CCC(=CCc1c(O)cc2c(c1O)C(=O)CC(c1ccc(OC)c(O)c1)O2)CC (centres unmarked) | cytotoxicity, MTT | 12.55 µM, 48 h | – | growth inhibition | 27.1% |
| CC(=O)[O][Pd][c]1cc(C)ccc1N1N=C(C)C(C)(C)C1=O.CC(=O)[O][Pd][c]1cc(C)ccc1N1N=C(C)C(C)(C)C1=O | annexin V/PI flow cytometry | 25 µM, 24 h | – | late apoptotic cells | 58.8 ± 1.13% |
| Nc1cc2cccnc2c2ncccc12.[Cl-].[Cl-].[Ru+2].c1cnc2c(c1)ccc1cccnc12.c1cnc2c(c1)ccc1cccnc12 | MTT | blue light | reference: IC50 HFF-1 over IC50 MCF7 | selectivity index | 0.7 |
| COc1ccc(COC[C@](O)(CNCc2ccc(F)cc2)[C@@H]2CC[C@@H](C)C[C@H]2OCc2ccc(OC)cc2)cc1 | cell growth or viability, MTT | 10 µM, 72 h | – | inhibition | 98% |
| Oc1ccnc(-c2cc(O)ccn2)c1.[Cl-].[Cl-].[Ru+2].c1ccc(-c2ccnc3c2ccc2c(-c4ccccc4)ccnc23)cc1.c1ccc(-c2ccnc3c2ccc2c(-c4ccccc4)ccnc23)cc1 | cell viability | – | reference: dark EC50 over light EC50 | phototoxicity index | > 200 |

Repeated from above:
| Structure (SMILES) | test | setting | how to read | endpoint | result |
| --- | --- | --- | --- | --- | --- |
| CCC(=CCc1c(O)cc2c(c1O)C(=O)CC(c1ccc(O)cc1)O2)CC (centres unmarked) | cytotoxicity, MTT | 54.29 µM, 48 h | – | growth inhibition | 72.8% |
| CC(=O)[O][Pd][c]1ccccc1-n1nc(C)cc1C.CC(=O)[O][Pd][c]1ccccc1-n1nc(C)cc1C | annexin V/PI flow cytometry | 25 µM, 24 h | – | late apoptotic cells | 86.3 ± 2.14% |
| Cc1c(COc2cc(OCc3cccc(C#N)c3)c(CNC(CO)(CO)CO)cc2Cl)cccc1-c1cccc(OCCCCCC(=O)NO)c1 | flow cytometry, PI staining | 5 µM, 48 h | – | G1 phase cells | 45.2% |
| NC(=O)c1ccc(-c2ccccc2Cl)c2c3c([nH]c12)CCC(N)C3 (centres unmarked) | cell growth or viability | – | – | IC50 | 0.026 µM |
| COc1ccc(C2CC(=O)c3c(cc(O)c(CC=C(C)C)c3O)O2)cc1 (centres unmarked) | cytotoxicity, MTT | 112.9 µM, 48 h | – | growth inhibition | 53.4% |
| C[C@@H]1CC[C@@H]([C@](O)(CNCc2cccc(F)c2)COCc2ccccc2)[C@H](OCc2ccccc2)C1 | cell growth or viability, MTT | 30 µM, 72 h | – | inhibition | 96.2% |
